# Published values of several laboratories.
# Every numbered part comes from another study and shows a few of its results, in no order.

# Sample 1 — technique: RNA Bind-n-Seq; form: RNA; medium: in vitro; tested at: not given; relative to: input RNA pool; reading: higher = stronger binding
# Target: RING finger protein unkempt homolog, zinc fingers 1-6, GST-SBP tag (UNK, Homo sapiens, UniProt Q9C0B0, residues 30-357)
# UniProt Q9C0B0, sequence (30-357, looked up): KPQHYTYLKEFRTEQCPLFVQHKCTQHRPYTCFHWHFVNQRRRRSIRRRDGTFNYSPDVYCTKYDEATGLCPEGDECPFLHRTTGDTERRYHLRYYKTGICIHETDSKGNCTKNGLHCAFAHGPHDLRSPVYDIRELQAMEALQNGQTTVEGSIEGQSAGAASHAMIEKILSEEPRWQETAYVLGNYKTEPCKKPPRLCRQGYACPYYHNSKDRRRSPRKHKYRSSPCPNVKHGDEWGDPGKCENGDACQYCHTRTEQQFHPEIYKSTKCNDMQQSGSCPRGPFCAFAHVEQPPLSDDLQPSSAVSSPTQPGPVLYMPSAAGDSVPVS
# Setting: RNA with constant flanks, human-mouse chimeric sites, ends assumed
# Constant ends, left off below: GGGAGUUCUACAGUCCGACGAUC … CAACAGAGGAUUGAGCAUCA
Sequence,bound/input enrichment [ratio]
UACUACUGAAUCUGUGAUAUUGGCAAUUAUUAUUAUGGCCAGGGUCAUCCCAUGAAGCCUCAUAGAAUCCGGAUGACUCAUAACUUGCUGCUAAAUUAUGGCUUAUACCGAAAAAUGGAA,0.226
CUGUGCGGGUGACUGUCCUGGAGUGGCUGGAGUUCCCGCCGGAGCGCGGCCAGACUAAUUUUAGAAAAUGCCAAGUAGGAAGUUUGUUGAGGGUGAAGUGGUCAGAGGCCGAUGGCCUGG,1.92
GGAAGUACAAUGAUGGAGAUUGAUGGUGACAAAGGCAAGCAGGGCGGGCCCACCUACUACAUAGAUACCAAUGCCCUGCGUGUUCCGAGGGAGAACAUGGAGGCCAUCUCACCACUCAAG,0.262
CUGUGACCACAAGAUCCUACCUGAGUGGCAGCUGAAGUUGACUCCCUCUCCUUGCCUGCCUAGUUUCCUUUUGUUCCCCCAUCCCCCAGUGUCGGCUGAGAUGUUGCCUCUGCACGGUUC,2.65
AACUUCGUGCAUCGGUUUCCCUUUGUAGCUGUUUCAAUUGGCUUCCUUGUGAAUAAAGAGAUGGAGUUUGGAGUUGUGUACAGUUGUGUGGAAGAUAAGAUGUACACCGGCAGGAAAGGG,0.488
UUUCUACUGCAGCAAACCAUGCUACGAAUUAAGGAUCCUAAGAAGUCCCUGGAUUUUUAUACGAGGGUUCUUGGACUGACCCUCCUGCAAAAAUGUGACUUCCCUGCUAUGAAGUUCUCG,0.211
GUUCGGCUUUGGGAUCAUGCCACAAUGACAGAAGUGAAAUCUCUAAAUUUUAAUAUGUCUGUUAGCAGCAUGGAGUAUAUUCCUGAAGGAGAGAUUUUGGUUAUUACUUAUGGACGAUCU,0.392
CAGUCCCCGUGUCCCAGUGCAGGACGAUGUGAACAAAAACUCAAAGCGGACCCUCUACUGUAGUUGAUGAUUCUCGAGUGCCAUUAUUAUUGUUUGUCUUUUUUUUUUUUUUUUUAAAGA,1.55
UUGAAAACAAACUGAUUUAAGUUUGAGUAUCACAAUGUUAGCUUUCUAAUUCCAUAAAAGUACUUGGUUUUUACAGUUUAUAAUCUGACAUCACCCCAGCGCCAUUUGUAAAGAGCAACU,0.398
AAAUCGUGUGUGUCCAAUAUUGAAAGUGCUUUAUCUACACUCCAGUAUGUAAGCAGUAUAGUAGUUUCUUUAGAGAAUAGGUCUGCCAUUGUAAAGUAUAAUGCAAGCUUAGUCACUCCA,1.69
AAUUUCCUGUCAUACUUUUUAGACAUUCACAUCAGACUUACAGAGCACCUGGCCACAUUCUAGGUUUGAAUUAUUUCUAAGCCUUUUAUAUGAUCAAAUGAGAACACUGCUUAACUAAUG,0.424

# Sample 2 — technique: RNAcompete; form: RNA; medium: in vitro; tested at: 20 nM; setting: 7-mer, probes averaged, single round; relative to: mean of 7-mers; reading: higher = stronger binding
# Target: PABPC1L2, full length, GST fusion (mouse, UniProt A0ABA7IW68)
# Construct (chain): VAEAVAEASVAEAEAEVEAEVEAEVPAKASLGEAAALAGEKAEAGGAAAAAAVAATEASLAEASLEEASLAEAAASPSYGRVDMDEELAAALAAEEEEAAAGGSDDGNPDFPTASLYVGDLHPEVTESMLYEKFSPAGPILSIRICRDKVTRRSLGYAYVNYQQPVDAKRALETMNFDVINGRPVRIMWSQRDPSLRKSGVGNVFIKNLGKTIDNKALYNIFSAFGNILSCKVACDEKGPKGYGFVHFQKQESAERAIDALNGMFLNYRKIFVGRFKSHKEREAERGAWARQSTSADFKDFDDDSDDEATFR
Sequence,7-mer Z-score
GACACCA,-0.124
AAAAGAA,7.26
GGCUCCG,-0.0573
GAUUACG,-0.126
UGCCUUG,-0.266
AGCCCGC,-0.302
UCAGGGG,0.238
AAAUUGU,1.21
CAAGUGG,0.102
GUGAAUC,-0.161
GGAGGCG,0.229
GGUACGC,-0.0192
AAAUCGA,1.48
UUCUUUU,-0.139
UUCCUAA,-0.24
UACCGAA,-0.00652
GCACGCU,-0.184
AACCCCC,-0.432
UCGUUCC,-0.505
ACUUGAC,-0.204
AACGUUA,-0.188
CAGAGGC,0.144
UACUCGC,-0.358
CAAUGUA,-0.128
UAUAAGU,-0.13

# Sample 3 — technique: aptamer microarray, sandwich; form: DNA with 2'F-ANA; medium: in vitro; tested at: 200 nM; together with: Cy3 exosite-II aptamer, 400 nM; reading: higher = stronger binding; sequence: GGTTGGTGTGGTTGG
# Target: Prothrombin, mature alpha-thrombin (F2, Homo sapiens, UniProt P00734)
# Setting: whole 15-mer aptamer, many near background
Modification,mean fluorescence intensity
2'F-ANA at 4 6 9 10 13,64.6 a.u.
2'F-ANA at 2 6 9 10 12 13 14 15,86.5 a.u.
2'F-ANA at 1 2 5 8 9 13,50.1 a.u.
2'F-ANA at 2 4 8 9 10 12 13,100 a.u.
2'F-ANA at 5 7 9 11 12,141 a.u.
2'F-ANA at 1 4 5 6 8 9 13 14 15,72.4 a.u.
2'F-ANA at 3 4 9 10 11 13 15,234 a.u.
2'F-ANA at 2 3 5 7 9 12 13,175 a.u.
2'F-ANA at 2 5 10 12 13 14,188 a.u.
2'F-ANA at 4 8 13,254 a.u.
2'F-ANA at 1 2 3 4 6 7 8 10 11,82.4 a.u.
2'F-ANA at 4 7 12 13 14 15,133 a.u.
2'F-ANA at 1 2 3 4 5 7 9 12 13,71.8 a.u.
2'F-ANA at 4 5 6 10 11 14 15,52.5 a.u.
2'F-ANA at 2 5 6 8 11 13 14 15,46.7 a.u.
2'F-ANA at 2 5 8 9 11 12 15,112 a.u.
2'F-ANA at 1 2 3 4 5 8 9 10 13 14 15,69.2 a.u.
2'F-ANA at 2 3 5 9 11 12 14,52.5 a.u.
2'F-ANA at 1 2 4 5 8 9 10 11 12 14 15,47.2 a.u.
2'F-ANA at 2 9 10 13 14,80 a.u.
2'F-ANA at 3 12 13 15,1310 a.u.
2'F-ANA at 3 10 11 12 13,613 a.u.

# Sample 4 — technique: protein binding microarray; form: double-stranded DNA, one strand shown; medium: in vitro; tested at: not given; relative to: not given; reading: higher = stronger binding
# Target: Histone acetyltransferase KAT6A, winged helix 1, GST fusion (KAT6A, Homo sapiens, UniProt Q92794, residues 1-85)
# Setting: 8-mer, flanks averaged, mean of 2 arrays, mostly near background
# Construct (chain): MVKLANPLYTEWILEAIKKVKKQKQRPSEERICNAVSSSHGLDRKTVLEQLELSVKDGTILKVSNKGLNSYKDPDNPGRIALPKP
Sequence,E-score
ACGTGGAC,-0.0508
CCCCTATA,-0.0336
GAGTACAA,-0.116
CATGAACA,-0.0799
CGTAGGCC,0.0533
CAGAGGGA,-0.0789
GAGGAGGA,-0.185
GCGAAGAC,0.167
GTCGACGA,-0.0278
TCCGCACA,0.182
GAGAAATC,-0.0142
AGACCCAG,-0.205
CCAAAATC,-0.0421
CTAAAGTC,-0.203
GAGTCAGA,0.0998
CTGTAGTC,0.0119
AGTCCCCA,-0.302
CGGTTAAG,0.107
CAAATGTA,-0.151
CCCCCGGC,0.334
GCTGAGGA,0.0455
CGGGTTAG,0.287
TGCGTGAA,0.142
TGATCTAA,-0.276
ACTACCAG,-0.131

# Excerpt of the above (sample 3):
Modification,mean fluorescence intensity
2'F-ANA at 2 6 9 10 12 13 14 15,86.5 a.u.
2'F-ANA at 4 8 13,254 a.u.
2'F-ANA at 1 2 5 8 9 13,50.1 a.u.
2'F-ANA at 2 9 10 13 14,80 a.u.
2'F-ANA at 4 6 9 10 13,64.6 a.u.
2'F-ANA at 2 5 10 12 13 14,188 a.u.
2'F-ANA at 1 4 5 6 8 9 13 14 15,72.4 a.u.
2'F-ANA at 1 2 3 4 5 7 9 12 13,71.8 a.u.
2'F-ANA at 4 5 6 10 11 14 15,52.5 a.u.
2'F-ANA at 3 4 9 10 11 13 15,234 a.u.
